Assay results of several laboratories.
A part holds a random share of what one study measured. Several values in a cell are separate wells, animals, samples, runs or records.
UniProt Q9UKS7, sequence (whole entry, looked up): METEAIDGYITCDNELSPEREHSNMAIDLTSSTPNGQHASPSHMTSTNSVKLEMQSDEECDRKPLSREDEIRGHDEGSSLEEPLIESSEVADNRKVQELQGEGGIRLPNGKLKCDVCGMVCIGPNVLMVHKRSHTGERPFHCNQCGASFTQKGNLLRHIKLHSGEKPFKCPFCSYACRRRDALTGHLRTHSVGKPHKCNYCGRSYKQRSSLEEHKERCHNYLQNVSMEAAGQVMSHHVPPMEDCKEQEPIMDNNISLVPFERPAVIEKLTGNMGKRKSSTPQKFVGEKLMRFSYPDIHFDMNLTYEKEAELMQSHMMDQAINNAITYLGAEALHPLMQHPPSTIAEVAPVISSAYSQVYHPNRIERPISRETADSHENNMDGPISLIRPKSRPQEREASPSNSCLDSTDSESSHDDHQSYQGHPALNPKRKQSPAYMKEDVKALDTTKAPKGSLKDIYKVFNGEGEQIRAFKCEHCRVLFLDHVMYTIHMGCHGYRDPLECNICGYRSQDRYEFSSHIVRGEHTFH
UniProt Q96SW2, sequence (whole entry, looked up): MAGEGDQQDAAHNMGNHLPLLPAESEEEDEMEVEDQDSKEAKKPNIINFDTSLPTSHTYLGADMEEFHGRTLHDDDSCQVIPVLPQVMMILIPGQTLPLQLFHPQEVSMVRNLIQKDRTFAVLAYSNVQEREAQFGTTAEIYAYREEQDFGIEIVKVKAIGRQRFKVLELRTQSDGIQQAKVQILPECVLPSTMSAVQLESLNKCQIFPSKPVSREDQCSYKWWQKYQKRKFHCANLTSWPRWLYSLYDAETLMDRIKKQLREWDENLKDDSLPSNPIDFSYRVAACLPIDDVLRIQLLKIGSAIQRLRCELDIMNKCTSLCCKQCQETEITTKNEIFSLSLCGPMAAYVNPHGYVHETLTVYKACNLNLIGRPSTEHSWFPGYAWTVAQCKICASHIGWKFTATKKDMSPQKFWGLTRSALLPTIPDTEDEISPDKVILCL

Series 1 — organism: Staphylococcus aureus; strain: USA300; concentration: 2 x MIC
SMILES: CCCCC[C@@H]1CC(=O)N[C@@H](C(C)C)C(=O)N[C@H](CCC(=O)O)C(=O)N[C@@H](CCCNC(=N)N)C(=O)NCC(=O)N2CCC[C@H]2C(=O)N[C@@H](CC(C)C)C(=O)N[C@H](CCC(N)=O)C(=O)N[C@@H](CCC(=O)O)C(=O)N[C@H](Cc2ccc(O)cc2)C(=O)N[C@H](Cc2c[nH]c3ccccc23)C(=O)NCCCC(=O)O1
| conditions | viable cells |
| --- | --- |
| 30 min | 1900 CFU/mL and 2100 CFU/mL and 2000 CFU/mL |
| 15 min | 4500 CFU/mL and 4300 CFU/mL and 4900 CFU/mL |
| 0 min | 4.4e+08 CFU/mL and 3.6e+08 CFU/mL and 4.9e+08 CFU/mL |
| 180 min | 500 CFU/mL and 700 CFU/mL and 800 CFU/mL |

Series 2
Structure (SMILES): C=CCN1C(=O)C(O)(C(=O)O)Oc2cc(F)ccc21 (centres unmarked)
| organism | test | system | conditions | how to read | inhibition |
| --- | --- | --- | --- | --- | --- |
| Arabidopsis thaliana | hypocotyl length | Col-0 | 100 µg/mL, 7 days, seed germination, dark | – | 35.6% |
| Arabidopsis thaliana | root length | Col-0, seedlings | 50 µg/mL | relative to: water control | 28.5% |
| Arabidopsis thaliana | hypocotyl length | Col-0 | 25.0 µg/mL, 7 days, seed germination, dark | – | 18.3% |
| Arabidopsis thaliana | hypocotyl length | Col-0, seedlings | 100 µg/mL | – | 35.6% |
| Amaranthus retroflexus | fresh weight | – | 150 g ai/ha, post-emergence treatment | – | 53.3% and 59.2% and 60.3% |
| Arabidopsis thaliana | root length | Col-0, seedlings | 6.25 µg/mL | relative to: water control | 17.6% |

Mixed results
| SMILES | tested on | test | system | conditions | how to read | endpoint | result |
| --- | --- | --- | --- | --- | --- | --- | --- |
| Cn1cc(-c2cccc(CN3CCC4(CC3)COc3c4ccc4c3CN([C@H]3CCC(=O)NC3=O)C4=O)c2)cn1 | HepG2 | – | – | concentration not given | relative to: vehicle | viability | 82.3% |
| NS(=O)(=O)c1ccccc1OCC(=O)NCC(F)(F)c1ccc(F)c(F)c1 | human islet β-cells | β-cell death | human | 10 µM, 24 h, with: 20 mM glucose + 500 µM palmitate | relative to: GFP+ cells | dead β-cells | 33.6% and 37.4% and 63.4% and 34.3% |
| O=C1CCC(N2Cc3c(ccc4c3OCC43CCN(Cc4ccccc4)CC3O)C2=O)C(=O)N1 (centres unmarked) | CRBN/Zinc finger protein Helios (Homo sapiens, UniProt Q96SW2+Q9UKS7) | degrader, HiBiT | HEK293 | 123.5 nM | – | protein remaining | 80.7% |
| O=C(COc1ccccc1P(=O)(O)O)NCC(F)(F)c1ccccc1 | human islet β-cells | β-cell death | human | 10 µM, 24 h, with: 20 mM glucose + 500 µM palmitate | relative to: GFP+ cells | dead β-cells | 17.7% and 6.39% and 9.43% and 7.51% |

For quick reference, copied from above (series 2):
| organism | test | system | conditions | how to read | inhibition |
| --- | --- | --- | --- | --- | --- |
| Arabidopsis thaliana | hypocotyl length | Col-0 | 100 µg/mL, 7 days, seed germination, dark | – | 35.6% |
